Measured values of several laboratories.
Each line is one published result; not all experiments were run side by side.
Target: Muscarinic acetylcholine receptor M4 (CHRM4, Homo sapiens, UniProt P08173)
UniProt P08173, sequence (whole entry, looked up): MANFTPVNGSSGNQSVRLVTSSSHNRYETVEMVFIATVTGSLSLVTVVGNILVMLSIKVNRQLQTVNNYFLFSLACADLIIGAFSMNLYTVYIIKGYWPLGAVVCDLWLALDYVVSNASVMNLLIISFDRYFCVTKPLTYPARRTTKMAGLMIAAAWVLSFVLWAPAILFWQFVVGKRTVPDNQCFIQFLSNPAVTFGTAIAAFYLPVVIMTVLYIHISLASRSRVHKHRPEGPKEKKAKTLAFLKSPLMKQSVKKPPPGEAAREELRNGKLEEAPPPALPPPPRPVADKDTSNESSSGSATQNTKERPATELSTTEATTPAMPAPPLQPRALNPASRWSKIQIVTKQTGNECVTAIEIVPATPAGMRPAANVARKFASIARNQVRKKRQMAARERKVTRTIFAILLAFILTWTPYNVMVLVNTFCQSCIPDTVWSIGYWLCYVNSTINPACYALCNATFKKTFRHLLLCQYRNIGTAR

SMILES | assay | system | conditions | endpoint | value
COc1cc(Cl)c(C(=O)N[C@@H](CN[C@H]2CC[C@@H](N)CC2)Cc2ccc(C#N)cc2)cc1-c1ccc(CN[C@H](C)c2ccc(C)cc2)o1 | agonist response, antagonist | human cells | 10 µM, M4 antagonist | inhibition | 28%
CCS(=O)(=O)c1nc(S(=O)(=O)c2ccccc2Cl)c(N2CCN(C)C(=O)[C@H]2C)s1 | – | – | 10 µM | inhibition | 19.9%
CC[C@]12CCCN3CCc4c([nH]c5ccccc45)[C@]31N(Cc1cn(Cc3ccccc3)nn1)C(=O)C2 | beta-arrestin recruitment, antagonist, PathHunter chemiluminescence | – | 20 µM, added: agonist at EC80 | inhibition | 75%
CCCC(CCC)c1nc2c(Nc3ccc(C#CCCCCCCCCN)cc3)nc3ccccc3c2[nH]1 | PDSP screening | – | – | off-target affinity | inactive
CN(C(=O)n1cnc(-c2ccc[n+]([O-])c2)c1)C1CCCCC1 | receptor binding | – | 10 µM, subtype M4 | inhibition | -2.99%
CCN1/C(=C/C(C)=O)Sc2ccc(F)cc21 | – | – | 10 µM | inhibition | 0%
OCCCN1CC[C@@H]2C[C@H]1c1cc(-c3ccc(C(F)(F)F)cc3)ccc12 | radioligand binding, PDSP competition binding | – | 10 µM | inhibition | < 50%
O=C(NO)c1ccc(CN2CCCCc3ccccc32)c(F)c1 | radioligand binding, radioligand displacement | – | 10 µM, mean of replicates | inhibition | 11.2%

For quick reference, copied from above:
SMILES | assay | system | conditions | endpoint | value
CCN1/C(=C/C(C)=O)Sc2ccc(F)cc21 | – | – | 10 µM | inhibition | 0%
